Measurements gathered from unrelated publications.
Numbered parts are unrelated; each lists some results of a single study. Values joined by “and” are separate records of one study, mostly repeats; a detail may differ.
Sequence of UniProt P25098 (whole entry, looked up): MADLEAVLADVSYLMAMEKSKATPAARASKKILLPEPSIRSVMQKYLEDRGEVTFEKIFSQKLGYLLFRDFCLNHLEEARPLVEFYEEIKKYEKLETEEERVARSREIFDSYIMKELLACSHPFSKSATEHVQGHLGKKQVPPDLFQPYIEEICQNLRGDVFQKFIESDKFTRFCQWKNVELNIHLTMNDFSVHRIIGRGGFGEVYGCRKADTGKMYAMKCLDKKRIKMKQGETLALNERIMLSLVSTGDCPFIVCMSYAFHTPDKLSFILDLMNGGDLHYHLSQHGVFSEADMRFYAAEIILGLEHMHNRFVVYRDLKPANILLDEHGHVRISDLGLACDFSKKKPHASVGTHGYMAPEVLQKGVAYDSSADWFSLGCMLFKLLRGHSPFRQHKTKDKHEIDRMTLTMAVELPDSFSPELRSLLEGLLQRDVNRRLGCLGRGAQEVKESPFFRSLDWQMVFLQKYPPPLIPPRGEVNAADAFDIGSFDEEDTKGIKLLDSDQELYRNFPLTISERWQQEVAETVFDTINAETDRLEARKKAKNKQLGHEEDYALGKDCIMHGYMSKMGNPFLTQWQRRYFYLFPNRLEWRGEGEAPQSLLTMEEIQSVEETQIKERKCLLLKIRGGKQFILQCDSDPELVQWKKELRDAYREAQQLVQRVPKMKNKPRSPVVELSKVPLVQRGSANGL
Sequence of UniProt Q99755 (whole entry, looked up): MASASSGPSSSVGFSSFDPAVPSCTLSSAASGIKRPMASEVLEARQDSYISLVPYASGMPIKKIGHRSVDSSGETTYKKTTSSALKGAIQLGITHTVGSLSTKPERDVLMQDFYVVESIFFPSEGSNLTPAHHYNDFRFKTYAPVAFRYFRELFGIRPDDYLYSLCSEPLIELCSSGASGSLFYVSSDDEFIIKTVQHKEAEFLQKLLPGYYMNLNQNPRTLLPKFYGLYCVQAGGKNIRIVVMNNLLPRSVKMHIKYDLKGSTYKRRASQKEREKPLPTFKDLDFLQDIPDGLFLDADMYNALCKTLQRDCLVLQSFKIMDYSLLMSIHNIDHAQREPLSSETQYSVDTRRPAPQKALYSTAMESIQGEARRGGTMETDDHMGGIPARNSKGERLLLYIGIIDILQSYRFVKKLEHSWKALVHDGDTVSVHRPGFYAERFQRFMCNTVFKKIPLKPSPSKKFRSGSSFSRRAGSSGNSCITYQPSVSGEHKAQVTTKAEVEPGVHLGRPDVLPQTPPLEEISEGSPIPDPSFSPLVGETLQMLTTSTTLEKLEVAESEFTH
Sequence of UniProt Q13557 (whole entry, looked up): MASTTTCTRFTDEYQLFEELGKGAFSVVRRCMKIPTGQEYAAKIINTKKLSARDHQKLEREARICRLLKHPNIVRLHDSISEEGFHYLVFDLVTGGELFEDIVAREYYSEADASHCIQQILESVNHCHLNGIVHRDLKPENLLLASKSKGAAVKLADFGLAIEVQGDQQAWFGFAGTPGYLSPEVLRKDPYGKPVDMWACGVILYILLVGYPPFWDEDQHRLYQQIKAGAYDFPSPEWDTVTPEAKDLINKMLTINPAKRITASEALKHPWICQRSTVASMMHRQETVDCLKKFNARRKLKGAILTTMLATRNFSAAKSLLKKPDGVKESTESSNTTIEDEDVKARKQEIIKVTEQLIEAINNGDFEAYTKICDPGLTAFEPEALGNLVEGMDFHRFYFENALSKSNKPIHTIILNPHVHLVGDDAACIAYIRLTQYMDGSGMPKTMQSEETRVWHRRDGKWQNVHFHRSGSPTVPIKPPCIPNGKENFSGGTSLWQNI
Sequence of UniProt P50613 (whole entry, looked up): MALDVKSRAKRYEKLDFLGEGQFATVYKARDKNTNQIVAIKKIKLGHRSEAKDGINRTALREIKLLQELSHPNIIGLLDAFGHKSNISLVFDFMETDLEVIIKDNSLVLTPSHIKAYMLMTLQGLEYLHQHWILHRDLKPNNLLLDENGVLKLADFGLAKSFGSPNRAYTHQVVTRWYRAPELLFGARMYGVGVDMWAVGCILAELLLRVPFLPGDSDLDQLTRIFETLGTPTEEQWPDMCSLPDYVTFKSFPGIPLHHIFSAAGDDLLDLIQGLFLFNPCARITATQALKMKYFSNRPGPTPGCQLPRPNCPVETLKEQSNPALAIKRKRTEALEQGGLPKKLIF
Sequence of UniProt O14965 (whole entry, looked up): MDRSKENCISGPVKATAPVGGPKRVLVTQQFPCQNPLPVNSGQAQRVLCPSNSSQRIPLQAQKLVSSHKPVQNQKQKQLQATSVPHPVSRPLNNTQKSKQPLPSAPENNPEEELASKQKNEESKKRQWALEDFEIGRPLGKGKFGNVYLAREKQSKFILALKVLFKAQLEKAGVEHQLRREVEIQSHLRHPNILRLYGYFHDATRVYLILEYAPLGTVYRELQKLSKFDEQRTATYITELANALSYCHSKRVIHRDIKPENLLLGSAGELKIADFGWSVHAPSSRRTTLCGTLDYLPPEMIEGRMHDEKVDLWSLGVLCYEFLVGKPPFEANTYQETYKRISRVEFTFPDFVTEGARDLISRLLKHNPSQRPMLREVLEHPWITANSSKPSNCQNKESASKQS
Sequence of UniProt Q00526 (whole entry, looked up): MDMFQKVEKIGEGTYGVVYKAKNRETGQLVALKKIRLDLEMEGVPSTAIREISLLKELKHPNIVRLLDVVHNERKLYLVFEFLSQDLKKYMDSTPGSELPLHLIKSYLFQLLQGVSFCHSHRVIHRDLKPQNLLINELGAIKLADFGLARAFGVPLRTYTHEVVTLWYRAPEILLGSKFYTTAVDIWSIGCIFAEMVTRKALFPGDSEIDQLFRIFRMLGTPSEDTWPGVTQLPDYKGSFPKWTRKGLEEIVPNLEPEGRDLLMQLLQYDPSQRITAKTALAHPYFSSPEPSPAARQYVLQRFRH
Sequence of UniProt P43403 (whole entry, looked up): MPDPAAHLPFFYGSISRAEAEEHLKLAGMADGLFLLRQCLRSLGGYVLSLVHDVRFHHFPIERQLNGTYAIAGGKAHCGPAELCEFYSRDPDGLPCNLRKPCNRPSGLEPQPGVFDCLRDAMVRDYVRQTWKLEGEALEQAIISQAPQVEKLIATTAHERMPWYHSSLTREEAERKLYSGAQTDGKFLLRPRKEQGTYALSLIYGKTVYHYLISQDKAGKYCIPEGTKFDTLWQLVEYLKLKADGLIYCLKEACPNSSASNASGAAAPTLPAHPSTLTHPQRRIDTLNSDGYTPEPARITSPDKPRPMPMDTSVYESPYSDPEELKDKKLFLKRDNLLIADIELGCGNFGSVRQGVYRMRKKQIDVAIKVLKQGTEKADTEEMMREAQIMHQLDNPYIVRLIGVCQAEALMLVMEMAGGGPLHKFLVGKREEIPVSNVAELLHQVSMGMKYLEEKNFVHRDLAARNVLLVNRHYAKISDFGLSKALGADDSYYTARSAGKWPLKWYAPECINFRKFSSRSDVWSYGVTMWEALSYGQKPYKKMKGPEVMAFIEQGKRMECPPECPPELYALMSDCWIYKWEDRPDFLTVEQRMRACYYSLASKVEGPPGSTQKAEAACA
Sequence of UniProt P49841 (whole entry, looked up): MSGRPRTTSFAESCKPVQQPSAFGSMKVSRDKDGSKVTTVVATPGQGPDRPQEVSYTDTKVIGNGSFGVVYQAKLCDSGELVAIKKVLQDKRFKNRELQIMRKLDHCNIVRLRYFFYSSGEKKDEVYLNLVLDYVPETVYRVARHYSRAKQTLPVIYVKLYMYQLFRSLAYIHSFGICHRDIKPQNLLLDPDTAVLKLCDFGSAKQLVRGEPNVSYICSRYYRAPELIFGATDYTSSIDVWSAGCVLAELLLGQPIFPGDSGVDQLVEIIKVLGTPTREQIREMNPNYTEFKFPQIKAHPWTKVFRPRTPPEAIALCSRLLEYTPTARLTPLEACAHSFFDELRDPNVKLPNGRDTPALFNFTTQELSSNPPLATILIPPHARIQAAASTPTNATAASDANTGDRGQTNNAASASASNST
Sequence of UniProt O15530 (whole entry, looked up): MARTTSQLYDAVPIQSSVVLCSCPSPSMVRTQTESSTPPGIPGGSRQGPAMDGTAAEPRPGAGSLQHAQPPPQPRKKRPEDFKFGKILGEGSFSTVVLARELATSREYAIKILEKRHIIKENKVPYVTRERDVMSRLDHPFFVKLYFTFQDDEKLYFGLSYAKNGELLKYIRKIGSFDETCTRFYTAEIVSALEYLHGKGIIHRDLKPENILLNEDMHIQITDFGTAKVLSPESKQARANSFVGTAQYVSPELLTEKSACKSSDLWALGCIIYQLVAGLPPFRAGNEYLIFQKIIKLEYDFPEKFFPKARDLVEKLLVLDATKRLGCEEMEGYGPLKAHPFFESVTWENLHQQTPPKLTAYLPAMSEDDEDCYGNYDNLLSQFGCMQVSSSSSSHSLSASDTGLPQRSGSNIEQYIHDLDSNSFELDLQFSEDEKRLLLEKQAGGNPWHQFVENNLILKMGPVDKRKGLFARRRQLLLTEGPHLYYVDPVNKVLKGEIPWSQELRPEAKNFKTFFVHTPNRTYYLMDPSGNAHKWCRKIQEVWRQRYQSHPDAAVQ

Sample 1
SMILES: N#CC1(c2ccccn2)CCN(Cc2cc(C(=O)O)c(=O)n3ccccc23)CC1
Method: competition with immobilised ligand
Tested at: 1 µM
Measurement: remaining binding
target = Tyrosine-protein kinase ABL1, phosphorylated (ABL1, Homo sapiens, UniProt P00519, Q252H); effect on = cell-free assay; value = 72%
target = PIK3C2B (Homo sapiens, UniProt O00750); effect on = cell-free assay; value = 97%
target = BMPR1A (Homo sapiens, UniProt P36894); effect on = binding; value = 97%
target = CDK3 (Homo sapiens, UniProt Q00526); effect on = cell-free assay; value = 99%
target = CAMK2D (Homo sapiens, UniProt Q13557); effect on = cell-free assay; value = 100%
target = TNK1 (Homo sapiens, UniProt Q13470); effect on = cell-free assay; value = 93%
target = MAP4K3 (Homo sapiens, UniProt Q8IVH8); effect on = cell-free assay; value = 80%
target = VRK2 (Homo sapiens, UniProt Q86Y07); effect on = cell-free assay; value = 100%
target = PDPK1 (Homo sapiens, UniProt O15530); effect on = cell-free assay; value = 100%
target = EGFR (Homo sapiens, UniProt P00533, del747-752/P753S); effect on = cell-free assay; value = 100%
target = CILK1 (Homo sapiens, UniProt Q9UPZ9); effect on = binding; value = 75%
target = MAP3K6 (Homo sapiens, UniProt O95382); effect on = cell-free assay; value = 100%
target = PTK6 (Homo sapiens, UniProt Q13882); effect on = cell-free assay; value = 100%
target = CDC42BPB (Homo sapiens, UniProt Q9Y5S2); effect on = cell-free assay; value = 96%
target = DSTYK (Homo sapiens, UniProt Q6XUX3); effect on = cell-free assay; value = 75%
target = CHUK (Homo sapiens, UniProt O15111); effect on = cell-free assay; value = 100%
target = CDK7 (Homo sapiens, UniProt P50613); effect on = cell-free assay; value = 58%
target = PIP5K1A (Homo sapiens, UniProt Q99755); effect on = cell-free assay; value = 100%
target = PRKACB (Homo sapiens, UniProt P22694); effect on = cell-free assay; value = 92%
target = LATS1 (Homo sapiens, UniProt O95835); effect on = cell-free assay; value = 100%
target = RET (Homo sapiens, UniProt P07949, V804M); effect on = cell-free assay; value = 92%
target = GRK2 (Homo sapiens, UniProt P25098); effect on = cell-free assay; value = 93%
target = DYRK2 (Homo sapiens, UniProt Q92630); effect on = cell-free assay; value = 95%
target = RIOK3 (Homo sapiens, UniProt O14730); effect on = cell-free assay; value = 96%
target = Myosin-IIIb (MYO3B, Homo sapiens, UniProt Q8WXR4); effect on = binding; value = 100%

Sample 2
Target: Calcium/calmodulin-dependent protein kinase type II subunit alpha (CAMK2A, Homo sapiens, UniProt Q9UQM7)
Sequence of UniProt Q9UQM7 (whole entry, looked up): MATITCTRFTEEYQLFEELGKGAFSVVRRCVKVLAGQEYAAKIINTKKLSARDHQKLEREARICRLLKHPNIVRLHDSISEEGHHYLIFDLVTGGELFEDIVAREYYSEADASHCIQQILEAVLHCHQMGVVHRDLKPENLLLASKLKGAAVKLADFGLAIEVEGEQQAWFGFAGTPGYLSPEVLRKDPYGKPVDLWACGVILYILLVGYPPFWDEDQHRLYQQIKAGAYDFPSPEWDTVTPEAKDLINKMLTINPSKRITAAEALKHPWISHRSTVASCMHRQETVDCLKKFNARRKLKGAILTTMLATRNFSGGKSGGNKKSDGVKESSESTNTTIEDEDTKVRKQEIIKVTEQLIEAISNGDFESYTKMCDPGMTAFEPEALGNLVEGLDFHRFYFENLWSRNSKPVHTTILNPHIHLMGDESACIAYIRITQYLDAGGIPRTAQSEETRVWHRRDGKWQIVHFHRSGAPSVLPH
Effect on: enzyme activity
Action: inhibitor
Tested at: 10 µM
Measurement: inhibition
Compound = Cn1cncc1CCN; value = -15%
Compound = CC(=O)[C@H]1CC[C@H]2[C@@H]3CC[C@H]4CC(=O)CC[C@]4(C)[C@H]3CC[C@]12C; value = -8%
Compound = CC(=O)O[C@@H]1C2[C@H]3C[C@H]4C5=Nc6ccccc6[C@]51C[C@@H]2N4[C@@H](C)[C@@H]3C=O (some centres unmarked); value = -13%

Sample 3
Structure (SMILES): CNC(=O)c1ccc(-c2cnn3ccc(C(=O)N(C)c4ccc(Cl)c(C(=O)O)c4)cc23)cc1
Measurement: IC50
target = PKN2 (Homo sapiens, UniProt Q16513); effect on = enzyme activity; action = inhibitor; value = > 30 µM
target = PTGS1 (Ovis aries, UniProt P05979); effect on = cell-free assay; value = > 30 µM
target = PRKCA (Homo sapiens, UniProt P17252); effect on = enzyme activity; action = inhibitor; value = > 30 µM
target = Androgen receptor (AR, Homo sapiens, UniProt P10275); effect on = cell-free assay; value = > 30 µM
target = FGFR4 (Homo sapiens, UniProt P22455); effect on = enzyme activity; action = inhibitor; value = > 30 µM
target = PGR (Homo sapiens, UniProt P06401); effect on = cell-free assay; value = > 30 µM
target = GSK3B (Homo sapiens, UniProt P49841); effect on = enzyme activity; action = inhibitor; value = 25 µM
target = PRKAA2 (Homo sapiens, UniProt P54646); effect on = enzyme activity; action = inhibitor; value = > 30 µM
target = RPS6KB1 (Homo sapiens, UniProt P23443); effect on = enzyme activity; action = inhibitor; value = > 30 µM
target = SLC6A3 (Homo sapiens, UniProt Q01959); effect on = cell-free assay; value = > 30 µM
target = EGFR (Homo sapiens, UniProt P00533); effect on = enzyme activity; action = inhibitor; value = > 30 µM
target = Aurora kinase A (AURKA, Homo sapiens, UniProt O14965); effect on = enzyme activity; action = inhibitor; value = 15 µM
target = Tribbles homolog 2 (TRIB2, Homo sapiens, UniProt Q92519); effect on = enzyme activity; action = inhibitor; value = 11.9 µM
target = ROCK2 (Homo sapiens, UniProt O75116); effect on = enzyme activity; action = inhibitor; value = > 30 µM
target = ZAP70 (Homo sapiens, UniProt P43403); effect on = enzyme activity; action = inhibitor; value = > 30 µM
target = rat benzodiazepine receptor; effect on = binding; value = > 30 µM
target = SYK (Homo sapiens, UniProt P43405); effect on = enzyme activity; action = inhibitor; value = > 30 µM

Sample 4
Cell line: HaCaT
Tested at: 100 µM
Time: 36 h
Measurement: viability
Compound = C=C1CC[C@@]2(O)[C@H]3Cc4ccc(O)c5c4[C@@]2(CCN3CC2CC2)[C@H]1O5; value = 95.6%
Compound = CNC(=O)Oc1ccccc1OC(C)C; value = 97.2%
Compound = Nc1ccncc1; value = 99.1%
Compound = CC(NC(C)(C)C)C(=O)c1cccc(Cl)c1 (centres unmarked); value = 90.4%

Sample 5
Cell line: mouse MPNST tumor cells
Method: high-content nuclear imaging
Refers to: cell number
Tested at: 10 µM
Time: 12 h
Setting: mean of 2 replicates
Baseline: plate mean
Direction: higher = more cells
Measurement: nuclei count
SMILES = Clc1ccc(OC[C@H]2CCN2)cn1; value = 0.0306 z-score
SMILES = C[C@H](N)[C@H](O)c1ccc(O)c(O)c1; value = 1.93 z-score
SMILES = N[C@@H]1C[C@H]1c1ccccc1; value = -1.56 z-score and 0.577 z-score
SMILES = C[C@]12CC[C@H](O)C[C@H]1CC[C@@H]1[C@@H]2CC[C@]2(C)[C@@](O)(c3ccoc3)CC[C@]12O; value = 1.26 z-score

For quick reference, copied from above (sample 5):
SMILES = Clc1ccc(OC[C@H]2CCN2)cn1; value = 0.0306 z-score
SMILES = C[C@H](N)[C@H](O)c1ccc(O)c(O)c1; value = 1.93 z-score
SMILES = N[C@@H]1C[C@H]1c1ccccc1; value = -1.56 z-score and 0.577 z-score
SMILES = C[C@]12CC[C@H](O)C[C@H]1CC[C@@H]1[C@@H]2CC[C@]2(C)[C@@](O)(c3ccoc3)CC[C@]12O; value = 1.26 z-score
